Measurements of several laboratories.
Lines come from different studies, so protocols differ. Numbers after ± are the reported error.

| Molecule | test | test system | conditions | scale | measurement | result |
| --- | --- | --- | --- | --- | --- | --- |
| Cc1cc(C(=O)/C(=C\c2ccc(Br)cc2)c2ccc(Br)cc2)c(C(=O)N2CCCCC2)c(=O)[nH]1 | cell proliferation, MTT | 35404 melanoma brain metastasis, human patient-derived | 72 h, tested up to 10 µM |  | IC50 | > 10000 nM |
| Cc1c(C)c2c(c(C)c1OCc1ccccc1)CCC(C)(C(=O)NN=C1C(=O)N(C)c3ccccc31)O2 (stereo not shown) | seizure protection | male CF-1 mice | intraperitoneal, 0.5 h, added: pentylenetetrazole 60 mg/kg subcutaneous |  | minimal effective dose | 100 mg/kg |
| CNC(=O)c1cc(Oc2ccc(NC(=O)Nc3ccc(Cl)c(C(F)(F)F)c3)cc2)ccn1 | nodule area | nude mouse, intrahepatic MHCC97H | oral, 2 mg/kg every 2 days, 10 doses, 21 days, cells transfected |  | inhibition | 62.1 ± 6.58% |
| COc1ccc(-c2c(Nc3ccccn3)[nH]c3c(C4=CCCCC4)c(-c4ccccc4)nn3c2=O)cc1 | immunohistochemistry H-score, measured: SDMA | human, tumour biopsy | concentration not given | reference: baseline biopsy | fold increase | ~2 fold |
| CN1CCN(CC(=O)N2c3ccccc3C(=O)Nc3cccnc32)CC1 | whole-cell voltage clamp | nucleus accumbens core D2-MSNs, mouse | 1 µM, added: D1-MSN 50 Hz stimulation | reference: baseline | EPSC amplitude | 107 ± 6.54% |
| insulin aspart | euglycaemic glucose clamp | elderly type 1 diabetes | subcutaneous, 0.2 U/kg, blood glucose decrease ≥0.3 mmol/L |  | onset of action | 29.1 min |
| C[C@H]1C[C@H]2CSC(N)=N[C@@]2(c2nc(NC(=O)c3ccc(OC(F)F)cn3)cs2)CO1 | measured: CSF Aβ1–38 | healthy adults | 275 mg once daily, 14 days, day 15 | reference: placebo-adjusted baseline | change from baseline | -87.4% |
| COc1ccc2c(c1)CC[C@H](CN(C)CC(=O)O)[C@@H]2c1ccccc1 |  | rat, prefrontal cortex microdialysate | oral gavage, 5 mg/kg/day, 2 weeks, PCP-treated rats |  | basal dopamine level | 1.71 ± 1.31 pg/10 µL |
| CC(C)C[C@H](NC(=O)[C@H](CO)NC(=O)[C@H](CCCNC(=N)N)NC(=O)[C@H](CC(=O)O)NC(=O)[C@H](CCC(=O)O)NC(=O)[C@H](C)NC(=O)[C@@H]1CCCN1C(=O)[C@H](C)NC(=O)[C@H](CCC(=O)O)NC(=O)[C@@H]1CCCN1C(=O)[C@@H]1CCCN1)C(N)=O | HPLC-EC | F344 rat, normal, striatum | intranasal, 1000 µg, 5 days/week for 3 weeks |  | HVA level | 658 ± 60 ng/g |
| COc1c(C)c(C)c2c(c1C)CCC(C)(C(=O)NN=C1C(=O)Nc3ccc(Br)cc31)O2 (stereo not shown) | seizure protection | male CF-1 mice | intraperitoneal, 4 h, added: pentylenetetrazole 60 mg/kg subcutaneous |  | minimal effective dose | 100 mg/kg |
| Nc1cc2c3ccccc3ccc2c2ccccc12 | adrenal haemorrhage prevention | rat | oral, added: 7,12-DMBA 5 mg i.v. |  | minimal protective dose | 1 mg |
| CCCN(O)N=Nc1ccc(S(=O)(=O)Nc2nccs2)cc1 | paw oedema | rat, carrageenan oedema | oral, 100 mg/kg, 2 h after carrageenan | reference: vehicle | inhibition | 35.1% |
| insulin | PET imaging | CD IGS rat, ipsilateral lateral gastrocnemius | intra-arterial (left femoral), 0.34-0.346 IU/kg, 20 to 60 min |  | 18F-FDG SUV slope | 0.0066 ± 0.0017 |
| SIIVFEKL | flow cytometry, measured: CD44hi CD8+ T cells | peptide, OT-I CD8+ T cells, mouse | primed 5 days, restimulated 100 ng/mL OVA257, added: no TGF-β1 |  | single cytokine producers | 5.95% |
| O=C1CCc2c(Oc3ccc4c(c3)[C@@H]3[C@H](O4)[C@H]3c3nc4ccc(C(F)(F)F)cc4[nH]3)ccnc2N1 | RECIST | patients with B-RAF-mutated solid tumours | dose not given |  | confirmed partial response | 15.1% |
| COCCc1ccc(OCC(O)CNC(C)C)cc1 (stereo not shown) |  | rats, adrenaline arrhythmia, myocardium | intragastric, 2.57 g/kg daily, 14 days |  | SERCA activity | 20 ± 1.22 U/mL |
| Cc1ccc(C(=O)NC2CC2)cc1-n1ncc(C(=O)c2cccc(C#N)c2)c1N | LPS-induced TNFα secretion, inhibitor | healthy human, peripheral blood ex vivo | total plasma concentration |  | IC50 | 115 nM |
| CS/C(S)=N/CCCC[S+](C)[O-] (racemic) | measured: Abcb1b | rat, mammary gland | oral gavage, 200 mg/kg, 4 days daily | reference: vehicle | mRNA level | 0.579 fold |
| Polymyxin B |  | human whole blood | 125 ng/mL, 4 h, 37 °C, added: E. coli LPS 0.5 ng/mL | reference: LPS without compound | IL-1β release | 24.9 ± 10.8% |
| RALRTK | ELISA or Luminex | peptide, mouse peritoneal macrophages, C57BL/6 mouse | optimal dose within 0.1 pM to 100 nM, 1 h pretreatment, 15 h stimulation, added: LPS 100 ng/mL + IFN-γ 20 ng/mL | reference: LPS/IFN-γ stimulated control | inhibition of TNF-α release | 0% |
| O=C1CSC(NN=C2c3ccccc3-c3nc4cc(F)ccc4nc32)=N1 |  | mice with STZ-induced diabetes | oral, 25 mg/kg, 216 h, day 9 |  | blood glucose | 281 ± 27.5 mg/dL |
| COc1ccnc(C[S+]([O-])c2nc3ccc(OC(F)F)cc3[nH]2)c1OC (stereo not shown) |  | human ultra-rapid metabolizer | 40 mg/day, day 6, 5 days dosing |  | intragastric pH | 1.2 |
| Cc1cccc(N(O)N=Nc2ccc(S(=O)(=O)Nc3cc(C)on3)cc2)c1 | paw oedema | rat, carrageenan oedema | oral, 100 mg/kg, 4 h after carrageenan | reference: vehicle | inhibition | 71.4% |
| Cc1c(C)c2c(c(C)c1O)CCC(C)(C(=O)NN=C1C(=O)Nc3ccc(Br)cc31)O2 (stereo not shown) | seizure protection | male CF-1 mice | intraperitoneal, 4 h, added: pentylenetetrazole 60 mg/kg subcutaneous |  | minimal effective dose | 30 mg/kg |
| Nc1ccc2ccc3c4ccccc4ccc3c2c1 | adrenal haemorrhage prevention | rat | oral, added: 7,12-DMBA 5 mg i.v. |  | minimal protective dose | 0.5 mg |

| Molecule | test | test system | conditions | scale | measurement | result |
| --- | --- | --- | --- | --- | --- | --- |
| NCCCC[C@@H]1NC(=O)[C@@H](Cc2c[nH]c3ccccc23)NC(=O)[C@H](c2ccccc2)NC(=O)[C@@H]2C[C@@H](OC(=O)NCCN)CN2C(=O)[C@H](Cc2ccccc2)NC(=O)[C@H](Cc2ccc(OCc3ccccc3)cc2)NC1=O | GHRH-stimulated GH secretion | healthy human volunteers | subcutaneous, 300 µg, added: GHRH 1 µg/kg | reference: pre-dose baseline | GH AUC(0-2h) change | -86.7% |
| Cc1c(C)c2c(c(C)c1OCc1ccccc1)CCC(C)(C(=O)NN=C1C(=O)Nc3ccc(F)cc31)O2 (stereo not shown) | seizure protection | male CF-1 mice | intraperitoneal, 4 h, added: maximal electroshock |  | minimal effective dose | 300 mg/kg |
| O=c1c(O)c(-c2ccc(O)c(O)c2)oc2cc(O)ccc12 |  | Ins2 Akita diabetic mouse, plantar foot skin | oral, diet, 0.05% in diet |  | epidermal nerve fiber density | no effect |
| Cc1cc(C)c(/C=C2\C(=O)Nc3ccccc32)[nH]1 | MRI | human | dose not given, 1.3 months |  | tumour volume | 95.3 cm³ |
| CCCCCCCCCCCCCCCC(=O)OCC(=O)[C@@]12O[C@H](CCC)O[C@@H]1C[C@H]1[C@@H]3C[C@H](F)C4=CC(=O)CC[C@]4(C)[C@@]3(F)[C@@H](O)C[C@@]12C | measured: human FGF21 protein | CD-1 mouse, plasma | subcutaneous, 0.3 mg/kg mRNA, MC3 LNP with hFGF21 mRNA, steroid/mRNA 2:3 | reference: LNP without steroid | AUC(2-58 h) fold change | 2.6 fold |
| CCOc1ccc(Cc2cc([C@]34OC[C@](CO)(O3)[C@@H](O)[C@H](O)[C@H]4O)ccc2Cl)cc1 |  | human, type 2 diabetes, severe renal impairment | dose not given, 24 h | reference: normal renal function median | urinary glucose excretion | ~15% |
| Cc1cccc(N(O)N=Nc2ccc(S(=O)(=O)Nc3nccs3)cc2)c1 | paw oedema | rat, carrageenan oedema | oral, 100 mg/kg, 2 h after carrageenan | reference: vehicle | inhibition | 37.1% |
| Cc1c(C)c2c(c(C)c1OCc1ccccc1)CCC(C)(C(=O)NN=C1C(=O)Nc3ccccc31)O2 (stereo not shown) | seizure protection | male CF-1 mice | intraperitoneal, 0.5 h, added: pentylenetetrazole 60 mg/kg subcutaneous |  | minimal effective dose | 30 mg/kg |
| SIYNFEKL | flow cytometry, measured: CD44hi CD8+ T cells | peptide, OT-I CD8+ T cells, mouse | dose not given, primed 5 days, restimulated 100 ng/mL OVA257, added: no TGF-β1 |  | IL-2+ IFN-γ+ cells | 17.9% |
| COc1cc(OC)c2c(=O)cc(-c3cc(C)c(OC[C@H](O)CN4CCCCC4)c(C)c3)oc2c1 | histology | C57BL/6J mouse, poly(I:C) model | oral or intraperitoneal, 10 mg/kg |  | neutrophilic airway inflammation | inhibited |
| insulin aspart | euglycaemic glucose clamp | Japanese type 1 diabetes patients | subcutaneous, 0.2 U/kg |  | time to early 50% GIRmax | 47.4 min |
| CC(=O)c1sc(NN=C2c3ccccc3-c3nc4cc(F)ccc4nc32)nc1C |  | mice with STZ-induced diabetes | oral, 25 mg/kg, 288 h, day 12 |  | blood glucose | 215 ± 9.97 mg/dL |
| TLQPPASSRRRHFHAALPPAR |  | peptide, rat stomach fundus strips | 3 µM | reference: TLQP-21 | contractile activity | 84 ± 10% |
| CCOC(=O)c1sc(NN=C2c3ccccc3-c3nc4cc(F)ccc4nc32)nc1C |  | mice with STZ-induced diabetes | oral, 25 mg/kg, 144 h, day 6 |  | blood glucose | 301 ± 34.7 mg/dL |
| CCCCCCOC(=O)N=C(N)c1ccc(NCc2nc3cc(C(=O)N(CCC(=O)OCC)c4ccccn4)ccc3n2C)cc1 |  | human subjects, plasma | dose not given, added: enoxaparin, dosed 24 h earlier | reference: dabigatran alone | PiCT increase | ~15% |
| CC(C)[C@H](NS(=O)(=O)c1ccc(-c2ccc(Br)cc2)cc1)C(=O)O |  | rat, isolated perfused stunned heart | dose not given, 20-25 min ischaemia, 30 min reperfusion |  | ventricular weight | 93.7 ± 1.3 mg |
| O=C1N=C(NN=C2C(=O)Nc3ccccc32)SC1=C1c2ccccc2-c2nc3cc(F)ccc3nc21 |  | mice with STZ-induced diabetes | oral, 25 mg/kg, 216 h, day 9 |  | blood glucose | 295 ± 80.3 mg/dL |
| COc1c(C)c(C)c2c(c1C)CCC(C)(C(=O)NN=C1C(=O)Nc3ccccc31)O2 (stereo not shown) | seizure protection | male CF-1 mice | intraperitoneal, 4 h, added: pentylenetetrazole 60 mg/kg subcutaneous |  | minimal effective dose | 100 mg/kg |
| CCN(O)N=Nc1ccc(S(=O)(=O)Nc2cc(C)on2)cc1 | paw oedema | rat, carrageenan oedema | oral, 100 mg/kg, 2 h after carrageenan | reference: vehicle | inhibition | 41.1% |
| O=C1CSC(N=C2c3ccccc3-c3nc4cc(F)ccc4nc32)=N1 |  | mice with STZ-induced diabetes | oral, 25 mg/kg, 144 h, day 6 |  | blood glucose | 293 ± 17.8 mg/dL |
| Cc1c(C)c2c(c(C)c1O)CCC(C)(C(=O)NN=C1C(=O)Nc3ccc(F)cc31)O2 (stereo not shown) | seizure protection | male CF-1 mice | intraperitoneal, 4 h, added: pentylenetetrazole 60 mg/kg subcutaneous |  | minimal effective dose | 300 mg/kg |
| COc1ccc2c(c1)c(CC(=O)O)c(C)n2C(=O)c1ccc(Cl)cc1 | multiplex bead immunoassay, measured: IL-6 | CD-1 mice, serum | ip, 20 mg/kg, three-injection regimen, added: LPS 3 mg/kg |  | cytokine level | 1910 ± 1110 pg/mL |
| Cc1c(C)c2c(c(C)c1O)CCC(C)(C(=O)NN=C1C(=O)N(C)c3cc(Cl)ccc31)O2 (stereo not shown) | seizure protection | male CF-1 mice | intraperitoneal, 0.5 h, added: pentylenetetrazole 60 mg/kg subcutaneous |  | minimal effective dose | 100 mg/kg |
| PHGYFLPGQFA | ELISA or Luminex | peptide, mouse peritoneal macrophages, C57BL/6 mouse | optimal dose within 0.1 pM to 100 nM, 1 h pretreatment, 15 h stimulation, added: LPS 100 ng/mL + IFN-γ 20 ng/mL | reference: LPS/IFN-γ stimulated control | inhibition of TNF-α release | 0% |

Some of these lines once more:
| Molecule | test | test system | conditions | scale | measurement | result |
| --- | --- | --- | --- | --- | --- | --- |
| TLQPPASSRRRHFHAALPPAR |  | peptide, rat stomach fundus strips | 3 µM | reference: TLQP-21 | contractile activity | 84 ± 10% |
| CCOC(=O)c1sc(NN=C2c3ccccc3-c3nc4cc(F)ccc4nc32)nc1C |  | mice with STZ-induced diabetes | oral, 25 mg/kg, 144 h, day 6 |  | blood glucose | 301 ± 34.7 mg/dL |
| CCCCCCOC(=O)N=C(N)c1ccc(NCc2nc3cc(C(=O)N(CCC(=O)OCC)c4ccccn4)ccc3n2C)cc1 |  | human subjects, plasma | dose not given, added: enoxaparin, dosed 24 h earlier | reference: dabigatran alone | PiCT increase | ~15% |
| CC(C)[C@H](NS(=O)(=O)c1ccc(-c2ccc(Br)cc2)cc1)C(=O)O |  | rat, isolated perfused stunned heart | dose not given, 20-25 min ischaemia, 30 min reperfusion |  | ventricular weight | 93.7 ± 1.3 mg |
| O=C1N=C(NN=C2C(=O)Nc3ccccc32)SC1=C1c2ccccc2-c2nc3cc(F)ccc3nc21 |  | mice with STZ-induced diabetes | oral, 25 mg/kg, 216 h, day 9 |  | blood glucose | 295 ± 80.3 mg/dL |
| COc1c(C)c(C)c2c(c1C)CCC(C)(C(=O)NN=C1C(=O)Nc3ccccc31)O2 (stereo not shown) | seizure protection | male CF-1 mice | intraperitoneal, 4 h, added: pentylenetetrazole 60 mg/kg subcutaneous |  | minimal effective dose | 100 mg/kg |
| CCN(O)N=Nc1ccc(S(=O)(=O)Nc2cc(C)on2)cc1 | paw oedema | rat, carrageenan oedema | oral, 100 mg/kg, 2 h after carrageenan | reference: vehicle | inhibition | 41.1% |
| O=C1CSC(N=C2c3ccccc3-c3nc4cc(F)ccc4nc32)=N1 |  | mice with STZ-induced diabetes | oral, 25 mg/kg, 144 h, day 6 |  | blood glucose | 293 ± 17.8 mg/dL |
